# Published values pooled from the literature.
# Protocols differ between the studies behind these lines. ± gives the spread as reported.
# Organism: Plasmodium falciparum
Structure (SMILES),test,test system,setting,scale,quantity,value
CC(=NNC(=S)NN=C(C(=NO)c1ccccc1)c1ccccc1)c1ccccc1,,3D7,,reference: HEK293 IC50 over parasite IC50,selectivity ratio,23.4
O=C1C2=C(Nc3ccccc3SC2c2ccsc2)c2ccccc21 (racemic),,Dd2 expressing yeast DHOD,with: 0.05 nM proguanil,reference: transgenic over parental Dd2,fold resistance,16.3
CC[C@H](C)[C@H](NC(=O)[C@H](Cc1ccccc1)NC(=O)[C@H](CC(C)C)NC(=O)[C@]1(C)CCCC=CCCC[C@](C)(NC(=O)[C@H](CC(C)C)NC(=O)[C@H](CCCCN)NC(=O)[C@H](CCC(N)=O)NC(=O)[C@H](CO)NC(=O)CNC(=O)CCNC(=O)c2ccc3c(c2)C(=O)OC32c3ccc(O)cc3Oc3cc(O)ccc32)C(=O)N[C@@H](CCC(N)=O)C(=O)N[C@@H](C)C(=O)N[C@@H](C)C(=O)N1)C(=O)NCC(=O)N[C@@H](CO)C(=O)N[C@@H](CCCCN)C(=O)N[C@@H](CC(C)C)C(=O)N[C@H](C(=O)N[C@H](C(N)=O)[C@@H](C)O)[C@@H](C)O,,CS2,"20 µM, 24 h, late-stage iRBC",,parasitemia reduction,~70%
CC[C@H](C)[C@H](NC(=O)[C@@H](NC(=O)[C@H](Cc1ccc(O)cc1)NC(=O)[C@H](CCCCN)NC(=O)[C@H](CCCCN)NC(=O)[C@H](CC(C)C)NC(=O)[C@H](CC(=O)O)NC(=O)[C@H](Cc1ccc(O)cc1)NC(=O)[C@H](CCC(N)=O)NC(=O)[C@H](CCCCN)NC(=O)[C@@H](NC(=O)[C@H](Cc1ccccc1)NC(=O)[C@H](CCCCN)NC(=O)[C@H](CCCCN)NC(=O)[C@H](Cc1c[nH]c2ccccc12)NC(=O)[C@H](CCCCN)NC(=O)[C@H](CCSC)NC(=O)[C@H](CCCNC(=N)N)NC(=O)[C@H](CCCNC(=N)N)NC(=O)[C@H](CC(N)=O)NC(=O)[C@H](CCC(N)=O)NC(=O)[C@H](Cc1ccccc1)NC(=O)[C@H](Cc1c[nH]c2ccccc12)NC(=O)[C@@H](NC(=O)[C@H](CCCCN)NC(=O)[C@@H](NC(=O)[C@H](CCC(N)=O)NC(=O)[C@@H](N)CCCNC(=N)N)[C@@H](C)CC)[C@@H](C)CC)[C@@H](C)CC)[C@@H](C)CC)C(=O)O,,3D7,"100 µM, 24 h, early trophozoite stage",reference: solvent control,growth inhibition,90 to 95%
CCCCN=Cc1[nH]c(-c2ccc[nH]2)cc1OC,,"HepG2, D6",,reference: HepG2 IC50 over D6 IC50,selectivity index,109
Cc1ccc2c(c1)[n+]([O-])c(C#N)c(-c1ccco1)[n+]2[O-],,K1 chloroquine-resistant,,reference: K1 IC50 over 3D7 IC50,resistance index,0.6
O=C1C2=C(Nc3ccccc3SC2C2CC2)c2ccccc21 (racemic),"growth, hypoxanthine uptake",Dd2 expressing yeast DHOD,,,EC50,> 5 µM
COC(=O)C1=CO[C@@H](C)[C@@H]2Cn3ccc4c5ccccc5nc-4c3C[C@H]12,"parasite growth, [3H]-hypoxanthine incorporation",Dd2 multidrug-resistant,48 h,reference: Dd2 over 3D7,sensitivity fold increase,8 fold
CC(C)C1=CC(=CNC2CCCCCCC2)N=C1c1ccc[nH]1,parasite growth,"Dd2, chloroquine-resistant",,,IC50,665 nM
O=C1C2=C(Nc3ccccc3SC2c2ccc(F)cc2)c2ccccc21 (racemic),,Dd2 expressing yeast DHOD,with: 0.05 nM proguanil,reference: transgenic over parental Dd2,fold resistance,7.7
N#Cc1c(-c2ccco2)[n+]([O-])c2ccc(C(F)(F)F)cc2[n+]1[O-],,K1 chloroquine-resistant,,reference: K1 IC50 over 3D7 IC50,resistance index,0.71
C[C@H]1C(=O)O[C@@H]2O[C@@]3(C)CC[C@@H]4[C@@]2(OO3)[C@H]1CC[C@]4(C)O,"parasite growth, SYBR Green I",3D7,,,MIC90,103 ± 2.9 nM
CCC(C)C1NC(=O)C(Cc2ccccc2)NC(=O)C(CCCCCC(=O)C2CO2)NC(=O)C2CCCCN2C1=O (centres unmarked),flow cytometry,Dd2,"concentration not given, 24 h exposure",reference: DMSO control,time to full killing,5 days
CN(C)CCCOc1ccc(C2Sc3ccccc3NC3=C2C(=O)c2ccccc23)cc1 (racemic),"growth, hypoxanthine uptake",Dd2 expressing yeast DHOD,,,EC50,> 5 µM
C1=CC(c2ccc[nH]2)=NC1=CNC12CC3CC(CC(C3)C1)C2,parasite growth,"7G8, chloroquine-resistant",,,IC50,235 nM
COC(=O)c1[nH]c(C(=O)OC)c2c1-c1c[nH]c3ccc(Cl)c(c13)C21C=Nc2ccc(Cl)cc21 (racemic),"parasite growth, SYBR Green",DD2,"72 h, drug-resistant strain, blood stage",,EC50,4.2 µM
CCC1=CC(=CNC23CC4CC(CC(C4)C2)C3)N=C1c1ccc[nH]1,parasite growth,"Dd2, chloroquine-resistant",,,IC50,45 nM
CN1CCC[C@@H]1C(=O)N[C@@H](Cc1ccc(-c2ccccc2)cc1)B(O)O,flow cytometry,3D7,72 h,,LD50,21 nM
COc1ccc2nc3cc(Cl)ccc3c(NCCN3C(=O)c4ccc5c6c(ccc(c46)C3=O)C(=O)N(CCN(C)C)C5=O)c2c1,"parasite growth, SYBR Green I fluorescence",W2 over 3D7,,reference: IC50 W2 over IC50 3D7,resistance index,6.58
COC1=CC(c2ccc[nH]2)=NC1=CNC1CCCCCCC1,parasite growth,"7G8, chloroquine-resistant",,,IC50,7.5 nM
Cc1c(-c2ccc(Cc3ccc(OC(F)(F)F)cc3)cc2)[nH]c2cccc(F)c2c1=O,,"HepG2, 3D7",,reference: CC50 HepG2 over EC50 3D7,selectivity ratio,> 625
CC1=CC(=CNC2CCCCCC2)N=C1c1ccc[nH]1,parasite growth,"Dd2, chloroquine-resistant",,,IC50,> 2500 nM
COc1cc2ncnc(Nc3ccc(Oc4ccccc4)cc3)c2cc1OC,,"red blood cells, FVO","up to 60 µM, 72 h",,merozoite invasion inhibition,no inhibition
